Experimental data pooled from the literature.
Each line is one published result; not all experiments were run side by side. Values joined by “and” are separate records of one study, mostly repeats; a detail may differ. ± marks the error that the study gave.

`CC(=O)Oc1cc2c(s1)CCN(C(C(=O)C1CC1)c1ccccc1F)C2` (stereo not drawn) — result for “patients with IPA above 90%”: 0% (light transmittance aggregometry; human patients, platelet-rich plasma; dose not given, 15 min, with: ADP 20 µM; baseline: patients).
`OC(CCN1CCCCC1)(c1ccccc1)C1CC2C=CC1C2` (stereo not drawn) — result for “EEG Beta3-power Fz-Cz”: 1.9 µV² (resting-state EEG; healthy elderly humans; oral, 4 mg, eyes closed, LS mean).
`O=S(=O)(NCCNC/C=C/c1ccc(Br)cc1)c1cccc2cnccc12`: “embryos reaching 4-cell” 60% and 52.9% (mouse zygotes; 20 µM, 72 h post-hCG).
The EC50 of `CC1(C)CCC(CN2CCN(c3ccc(C(=O)NS(=O)(=O)c4ccc(NCC5CCOCC5)c([N+](=O)[O-])c4)c(Oc4cnc5[nH]ccc5c4)c3)CC2)=C(c2ccc(Cl)cc2)C1` is reported as 1650 nM (cell kill, PI exclusion flow cytometry; circulating neoplastic cells, human, peripheral blood; 24 h).
`CC1(C)CCC2=C(O1)c1ccccc1C(=O)C2=O` gave an EC50 of 6730 nM (Toxoplasma gondii; parasite growth, luciferase reporter; HFF, tachyzoite; 72 h).
For `c1ccc(-c2n[nH]cc2-c2ccnc3ccccc23)nc1`, “log2 fold change” read 1.55 (kinase binding, competitor, MIB/MS competition, item: RCK2; Candida albicans cell lysate; 100 nM; baseline: DMSO).
`O=C(OC(C(F)(F)F)C(F)(F)F)N1CCN(Cc2cccc(Oc3ccccc3)c2)CC1` gave a k3 of 4 min⁻¹ (PET blocking study; rhesus monkey, brain Pons; 0.1 mg/kg, compound pretreatment, with: [18F]T-401 tracer).
`Cc1cc(CN)cc(C)c1NC(=O)c1ccc(-c2cc(Cl)ccc2Cl)o1` gave an EC50 of 1630 nM (Toxoplasma gondii; parasite growth, luciferase reporter; HFF, tachyzoite; 72 h).
Under “log2 fold change”, `Cc1n[nH]c2ccc(-c3cc(OC[C@@H](N)Cc4ccccc4)cnc3-c3ccoc3)cc12` is recorded as -0.226 (kinase binding, competitor, MIB/MS competition, item: TOR1; Candida albicans cell lysate; 100 nM; baseline: DMSO).
With `COc1cc(/C=C/C(=O)CC(=O)/C=C/c2ccc(O)c(OC)c2)ccc1O` the plasma TG was 0.76 ± 0.18 mmol/L (high-fat diet hyperlipidaemic rat; oral, 200 mg/kg daily, 4 weeks).
Under “change in fasting glucose”, `N#Cc1ccc2c(c1)[C@H]1CCCN(C(=O)c3ccc4[nH]cnc4c3)[C@H]1C2` is recorded as 1.2% (human, plasma; 20 mg, day 15, 360 h; baseline: placebo and baseline).
For `C[C@]12CC[C@@H]3c4ccc(O)cc4CC[C@H]3[C@@H]1CC[C@@H]2O`, the mRNA level was 0.051 (RT-qPCR, item: CO; Arabidopsis thaliana ING1:FLAG seedlings; 20 µM, 4 h after treatment, replicate rep3, unit not given; baseline: TUB2).
The inhibition of `NCC(=O)Nc1cncc(-c2nn3c(=O)cc(N4CCNCC4)nc3s2)c1` is reported as 76.9% (ADP-induced platelet aggregation, light transmission aggregometry; human, stable CAD on aspirin, ex vivo platelets; subcutaneous, 0.05 mg/kg, 15 min post-dose, mean value, with: ADP 20 µM).
Under “percent change from baseline”, `C[C@H]1C[C@H]2CSC(N)=N[C@@]2(c2nc(NC(=O)c3ccc(OC(F)F)cn3)cs2)CO1` is recorded as -87.5% (item: Aβ1-40; healthy adults, plasma; 125 mg once daily, day 14; baseline: placebo).
For `CCOc1c([C@H](C)n2nc(C)c3c(N)ncnc32)cc(Cl)c(F)c1[C@@H]1CNC(=O)C1`, “plasma protein level change” read 250% (Olink proximity extension proteomics, item: HAOX1; human FL or MZL patients, plasma; dose not given, week 8; baseline: baseline).
For `O=C(O)C1=CC(=C(c2ccc(O)c(C(=O)O)c2)c2ccc(O)c(C(=O)O)c2)C=CC1=O`, “CD8+ T cells in CD3+” read “increased” (flow cytometry; C57BL/6J mouse MC-38 tumour, tumour-infiltrating lymphocytes; peritumoral, dose not given, 2 cycles; baseline: vehicle).
`C=Cc1c(C)c2cc3nc(c(CC(=O)O)c4[nH]c(cc5nc(cc1[nH]2)C(C)=C5CC)c(C)c4C(=O)O)[C@@H](CCC(=O)O)[C@@H]3C` has an M1 cells of 1.97% and 1.51% and 1.28% (flow cytometry; mouse, 4T1 tumour-bearing; dose not given, 1 h).
`C[C@H](Oc1ccc(Br)cc1-c1ccon1)C(=O)O` — result for “difference from placebo”: 11.7% (response peak; human, tibialis anterior muscle; 400 mg, 30 Hz+30 s).
`CCCCCN1C[C@H](O)[C@@H](O)[C@H](O)[C@@H]1CO` — result for “number of significantly changed genes”: 1 genes (mRNA sequencing; mouse Hexb-/-, hippocampus; 30 mg/kg/day; baseline: untreated Hexb-/- mice).
The necrotic area of `COc1ccc(C2=N[C@@H](c3ccc(Cl)cc3)[C@@H](c3ccc(Cl)cc3)N2C(=O)N2CCNC(=O)C2)c(OC(C)C)c1` is reported as 13.6% and 15.4% and 11.7% and 10.3% and 7.4% (histology; Dmd C3333Y mice, gastrocnemius; dose not given).
For `CCCn1cc(C)c2c(=O)[nH]c(-c3cc(S(=O)(=O)N4CCN(CC)CC4)ccc3OCC)nc21`, “maximum change in systolic blood pressure” read -6.26 ± 5.16 mmHg (supine; concentration not given, 0 to 4 h; baseline: baseline).
For `CC(C)n1c(C2CCNCC2)nc2c([N+](=O)[O-])c(Br)c(Br)cc21`, the maximum reduction was -99% (item: blasts; AML patients IDH mutated, bone marrow; dose not given, all doses).
With `FC(F)(F)Oc1cccc(-c2cnc3ccc(-c4ccncc4)nn23)c1` the tumour bioluminescence was 5.28e+10 photons/s and 9.96e+10 photons/s and 1.53e+10 photons/s and 1.14e+10 photons/s and 4e+10 photons/s (bioluminescence imaging; mouse, MDA-MB-231-Luc xenograft; 30 mg/kg, day 14).
For `N#Cc1ccn2c(-c3ccncc3)c(-c3ccc(F)cc3)nc2c1`, “log2 fold change” read 0.339 (kinase binding, competitor, MIB/MS competition, item: CKA2; Candida albicans cell lysate; 100 nM; baseline: DMSO).
Under “partial response, best response”, `O=C1Nc2cc3[nH]nc(-c4ccncc4)c3cc2CN1Cc1ccccc1` is recorded as 0% (RECIST v1.1; human, relapsed or refractory advanced solid tumours; intravenous, 7.2 mg/kg).
`NC(=O)c1cnc2[nH]ccc2c1N[C@@H]1[C@@H]2CC3C[C@H]1C[C@@](O)(C3)C2` — result for “change from baseline”: -0.65% (flow cytometry, item: CD4+ naive T cells; Japanese healthy subjects, peripheral blood; oral, 30 mg twice daily, day 4).
With `COc1cc2nccc(Oc3ccc(NC(=O)NC4CC4)c(Cl)c3)c2cc1C(N)=O` the Hill coefficient was 4.13 (item: Ang-2; human, serum; PK/PD model, bootstrap median).
`N#Cc1ccc2c(c1)[C@H]1CCCN(C(=O)c3ccc4[nH]cnc4c3)[C@H]1C2` — result for “change from baseline”: -14 nmol/L (item: cortisol; human, Phase II trial; oral, 240 mg once daily, HPA axis, mean).
For `COc1cc(O)c(CC=C(C)C)c(O)c1C(=O)/C=C/c1ccc(O)cc1`, “fat pad weight, % body weight” read “no effect” (male Tac:SW mice, conventional and germ-free; in high-fat diet, dose not given, 10 weeks; baseline: high-fat diet alone).
The sarcomere length of `CC(C)NCC(O)c1ccc(O)c(O)c1` (stereo not drawn) is reported as 1.5 µm (ventricular cardiomyocytes, C57BL/6 mouse; dose not given, 0.216 s).
For `CC[C@@H]1[C@H](F)C(=O)N[C@@H]1COc1nccc2cc(C(N)=O)c(OC)cc12`, the inhibition was -4.9% (ATP-site probe binding, ActivX profiling, item: MST4, YSK1; THP-1 cell lysate; 0.2 mM, Lys2 site).
`C[C@@H](NC(=O)N1C(=O)[C@H](Cc2ccnc(N)c2)[C@H]1C(=O)O)C1CCCCC1` — result for “time to aPTT Emax”: 84 h (human; iv infusion, 0.3 mg/kg/h, 24 h).
`CC(C)(C)c1sc2ncnc(Oc3c(F)cccc3OC(F)(F)F)c2c1-c1ccc(Cl)cc1` gave a Hill slope of 1.31 (heat hyperalgesia; humanized MrgprX1 mice, CCI; oral).
Under “GSEA enrichment score”, `CN(C)C(=O)c1cc2cnc(Nc3ccc(N4CCNCC4)cn3)nc2n1C1CCCC1` is recorded as -0.355 (RNA sequencing, item: HALLMARK_KRAS_SIGNALING_DN; MB002 tumour; concentration not given; baseline: vehicle, direction not given).
The plasma C4 of `CCCCC1(CCCC)CN(c2ccccc2)c2cc(SC)c(OCC(=O)N[C@@H](C(=O)NCC(=O)O)c3ccccc3)cc2S(=O)(=O)C1` is reported as 45.3 ng/mL (item: 7α-hydroxy-4-cholesten-3-one; human, plasma; 2.5 mg once daily, day 7).
For `O=C([O-])CN1CCN(CC(=O)[O-])CCN([C@H](CO)[C@H](O)CO)CCN(CC(=O)[O-])CC1.[Gd+3]` (racemic), “maximum signal enhancement” read ~65% (C57BL/6 mouse, healthy, liver; intravenous, 0.1 mmol/kg).
`O=C1O[C@H]([C@@H](O)CO)C(O)=C1O` has an inhibition of 20.7% (hydroxyl radical scavenging; 40 µM).
`Cn1cc(Nc2nccc(-c3ccc4c(c3)CN(C3COC3)CC[C@H]4NC(=O)c3cn(C(C)(C)C)nn3)n2)cn1` — result for “pathway activation z-score”: 1.58 (item: Protein Kinase A Signaling; splenic B cells, mouse; in vivo, 30 mg/kg, IgD-activated B cells; baseline: vehicle, positive = activation).
`CN[C@@H]1COc2c(S(=O)(=O)NC(=O)Nc3c4c(cc5c3CCC5)CCC4)cnn2C1` has an inhibition of 99.4% (item: IL-1β; human participants, whole blood ex vivo; 900 mg single dose, 8 h, with: LPS/ATP; baseline: baseline).
`COc1ccc(-c2cncc(N[C@@H](C)c3cccc(NC(=O)c4cncc(C)c4)c3)n2)cc1OC` has a fold change of 1.71 (item: rno-miR-192-5p; rat SU5416/hypoxia model, lung; dose not given; baseline: SU5416/hypoxia vehicle).
For `CCN(Cc1nc2c(N)nc3cc(-c4cc[nH]n4)ccc3c2[nH]1)C(C)=O`, “mean fold change” read 1.5 (immunohistochemistry, item: PD-L1+ immune cells; patients with advanced solid tumours, injected tumour lesions; dose not given, monotherapy; baseline: baseline).
Under “insulin content reduction”, `CC[C@H](C)[C@H](NC(=O)[C@H](C)NC(=O)CNC(=O)[C@H](Cc1ccccc1)NC(=O)[C@H](CC(N)=O)NC(=O)[C@H](CC(N)=O)NC(=O)[C@H](CO)NC(=O)[C@H](CO)NC(=O)[C@H](Cc1c[nH]cn1)NC(=O)[C@@H](NC(=O)[C@H](CC(C)C)NC(=O)[C@H](Cc1ccccc1)NC(=O)[C@H](CC(N)=O)NC(=O)[C@H](C)NC(=O)[C@H](CC(C)C)NC(=O)[C@H](CCCNC(=N)N)NC(=O)[C@H](CCC(N)=O)NC(=O)[C@@H](NC(=O)[C@H](C)NC(=O)[C@@H]1CSSC[C@H](NC(=O)[C@@H](N)CCCCN)C(=O)N[C@@H](CC(N)=O)C(=O)N[C@@H]([C@@H](C)O)C(=O)N[C@@H](C)C(=O)N[C@@H]([C@@H](C)O)C(=O)N1)[C@@H](C)O)C(C)C)C(=O)N[C@@H](CC(C)C)C(=O)N[C@@H](CO)C(=O)N[C@@H](CO)C(=O)N[C@H](C(=O)N[C@@H](CC(N)=O)C(=O)N[C@H](C(=O)NCC(=O)N[C@@H](CO)C(=O)N[C@@H](CC(N)=O)C(=O)N[C@H](C(=O)N[C@@H](Cc1ccc(O)cc1)C(N)=O)[C@@H](C)O)C(C)C)[C@@H](C)O` is recorded as ~45% (isolated mouse islets; 10 µM, 24 h; baseline: control).
`Cc1nn(-c2nc3c(F)cc(F)cc3s2)c(O)c1C(c1ccc(C(F)(F)F)cc1)c1c(C)nn(-c2nc3c(F)cc(F)cc3s2)c1O` gave a pancreas weight of 0.166 g and 0.201 g and 0.173 g and 0.174 g and 0.196 g (mouse, cerulein-induced acute pancreatitis; 25 mg/kg).
`O=C(O)CNC(=O)Cc1ccccc1` gave a sarcomere length of 1.72 µm (ventricular cardiomyocytes, C57BL/6 mouse; dose not given, 0.436 s).
For `C=CCn1c(=O)c2cnc(Nc3ccc(N4CCN(C)CC4)cc3)nc2n1-c1ccc2c(n1)[C@@](O)(CC)CC2`, “tumour growth inhibition” read 47.7% (SW1573 xenograft, NOD/SCID mice; oral, 80 mg/kg, day 28, once daily intermittent cycles).
Under “tactile threshold change”, `N=C(N)NCCC[C@H](NC(=O)[C@H](CCCNC(=N)N)NC(=O)[C@H](CCCCN)NC(=O)[C@H](CCC(N)=O)NC(=O)[C@H](CCCCN)NC(=O)[C@H](Cc1ccc(O)cc1)NC(=O)[C@@H](N)CCCCN)C(=O)N[C@@H](CO)C(=O)N[C@@H](Cc1ccc(O)cc1)C(=O)N[C@@H](CCCCN)C(=O)O` is recorded as -1 ± 0.89 (dentin hypersensitivity patients; 10 µg/tooth single, day 22, unit not given; baseline: baseline).
`N#Cc1ccc2c(-c3ccncc3)c(-c3ccc(F)cc3)nn2c1`: “log2 fold change” -0.165 (kinase binding, competitor, MIB/MS competition, item: SAK1; Candida albicans cell lysate; 100 nM; baseline: DMSO).
`CCOC(=O)n1ccn(C)c1=S` — result for “seminal fluid volume”: “increased” (hyperthyroid men; dose not given, 6 months; baseline: baseline).
